Assay results collected from several papers.
Parts stem from different laboratories: compare values within a part only.

Series 1
Target: Interferon regulatory factor 7, full length, phosphomimetic (IRF7, Homo sapiens, UniProt Q92985, residues 1-503, S471D/S472D/S475D/S476D/S477D/S483D/S484D/S487D)
Sequence of UniProt Q92985 (whole entry, unmodified, looked up): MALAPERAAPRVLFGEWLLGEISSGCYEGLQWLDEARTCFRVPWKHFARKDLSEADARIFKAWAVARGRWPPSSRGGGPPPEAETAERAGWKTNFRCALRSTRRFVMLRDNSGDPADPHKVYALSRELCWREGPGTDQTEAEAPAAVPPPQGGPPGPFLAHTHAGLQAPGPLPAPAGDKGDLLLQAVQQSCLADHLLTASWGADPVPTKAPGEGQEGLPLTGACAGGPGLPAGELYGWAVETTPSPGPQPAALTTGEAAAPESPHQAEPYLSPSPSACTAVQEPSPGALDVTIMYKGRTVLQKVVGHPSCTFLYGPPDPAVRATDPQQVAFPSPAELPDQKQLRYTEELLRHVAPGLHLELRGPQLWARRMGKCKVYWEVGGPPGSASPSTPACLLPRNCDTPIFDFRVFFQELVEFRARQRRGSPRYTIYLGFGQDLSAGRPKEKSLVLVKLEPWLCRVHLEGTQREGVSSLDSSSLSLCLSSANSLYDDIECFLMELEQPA
Technique: protein-binding microarray
Molecule type: double-stranded DNA, one strand shown
Sample: in vitro
Concentration: 2200 nM top
Setting: 60-bp whole probe
With: salmon DNA 0.4 mg/ml
Reference: random background probes
Direction: higher = stronger binding
For `GCCTAGCACCAACCTTTGTTTTTTTCTATGTGCTAGGTCTTGATTCGCTTGACGCTGCTG`, “fitted relative affinity” read 1.57 z-score.
Under “fitted relative affinity”, `GCCTAGCACGACGGTTTCCCACTGCTGACGTGCTAGGTCTTGATTCGCTTGACGCTGCTG` is recorded as 2.01 z-score.
Under “fitted relative affinity”, `GCCTAGCACGACGGTTTCGACTATCGGGATGTGCTAGTCTTGATTCGCTTGACGCTGCTG` is recorded as 3.45 z-score.
`GCCTAGCACTTAGATTTCAGTCTCGGTTAGTGCTAGGTCTTGATTCGCTTGACGCTGCTG`: “fitted relative affinity” 1.21 z-score.

Series 2
Target: Ras GTPase-activating protein-binding protein 1, full length (G3BP1, Homo sapiens, UniProt Q13283)
Sequence of UniProt Q13283 (whole entry, looked up): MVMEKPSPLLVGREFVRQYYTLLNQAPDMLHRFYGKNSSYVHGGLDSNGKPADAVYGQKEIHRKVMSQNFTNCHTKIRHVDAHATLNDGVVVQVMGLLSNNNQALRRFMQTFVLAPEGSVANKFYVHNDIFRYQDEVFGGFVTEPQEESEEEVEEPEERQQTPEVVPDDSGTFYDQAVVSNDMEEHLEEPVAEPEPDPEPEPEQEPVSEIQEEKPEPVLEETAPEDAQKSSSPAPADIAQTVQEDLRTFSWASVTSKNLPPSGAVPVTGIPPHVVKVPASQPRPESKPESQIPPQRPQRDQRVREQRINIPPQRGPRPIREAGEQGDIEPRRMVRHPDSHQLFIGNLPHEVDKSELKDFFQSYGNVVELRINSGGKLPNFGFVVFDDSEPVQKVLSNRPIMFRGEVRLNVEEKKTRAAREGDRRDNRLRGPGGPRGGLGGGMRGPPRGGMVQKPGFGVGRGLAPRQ
Technique: RNA Bind-n-Seq
Molecule type: RNA
Sample: in vitro
Concentration: 200 nM
Setting: whole 134-nt RNA, ends assumed
With: 150 mM KCl
Reference: input library
Direction: higher = stronger binding
`GGGAGUUCUACAGUCCGACGAUCUCCUCAAGUCCUGUGCUACACAUCGUAUGUACCGAAUCGGGGCGGCGGCGGAAAGUAUUAUGUUACGCCGUUCGGAUCUGCACUUCCAGCUGGAAUUCUCGGGUGUCAAGG` has a log2 enrichment of -0.295.
The log2 enrichment of `GGGAGUUCUACAGUCCGACGAUCAGUCCUGUGCUACACAUCGUAUGUACCGAAUCGGGAAAAAGGGAAAAAGGAAAAAGGAAAGUAUUAUGUUACGCCGUUCGGAUCUGCACUUGGAAUUCUCGGGUGUCAAGG` is reported as -0.901.
`GGGAGUUCUACAGUCCGACGAUCCAAGUCCUGUGCUACACAUCGUAUGUACCGAAUCGGCCCCGGGCCCCGGCCCCGGAAAGUAUUAUGUUACGCCGUUCGGAUCUGCACUUCUGGAAUUCUCGGGUGUCAAGG` has a log2 enrichment of -0.514.

Series 3
Target: RNA binding protein fox-1 homolog 2, RRM domain, GST-SBP tag (RBFOX2, Homo sapiens, UniProt O43251-10, residues 100-194)
Technique: RNA Bind-n-Seq
Molecule type: RNA
Sample: in vitro
Concentration: 365 nM
Setting: natural RNA segment, single round, ends assumed
Reference: no-protein control
Direction: higher = stronger binding
`GGGAGUUCUACAGUCCGACGAUCCCUUUUUAAAGUUUAAUUUUAUAGCUGGCUCCACAUCAAAGUGAGGGCCUCAUAUGUUAGAUCACCUUGGGUGGCAAACACCCCAGUUCCCACGCAGUUGAGUGUCAUCAUGGAAUUCUCGGGUGCCAA`: “RBNS enrichment (R)” 0.698.
`GGGAGUUCUACAGUCCGACGAUCCCCUCUGAAGGCCAGGAGCCCGCGGGAGGAGAUCCUGUAGCCACCUGGUCUGUCUCCUCAGGGCAGGGCCCAGCACACUGCCCGGCCAGUCCUCCUACCUCCCGAGUCUGUGGAAUUCUCGGGUGCCAA`: “RBNS enrichment (R)” 0.501.
For `GGGAGUUCUACAGUCCGACGAUCUUCGUCAUCAGUUGUUCUUGAACAUGGUCUUUUAAAAACUAGUCAGAUGAAUUGUUUUCAUCUGAAGCCUGCUAUCUUUUUUAAAAGAUGUGCUAUUUAUUCUUGCACGAUGGAAUUCUCGGGUGCCAA`, “RBNS enrichment (R)” read 5.18.
`GGGAGUUCUACAGUCCGACGAUCUUGGAUGGCUUCUUUUGUCACCCUGAUCUCCUAUGUUACCAAUGUGUAUCGUCUCCUUCUCCCUAAAGUGUACUUAAUCUUUGCUUUCUUUGCACAAUGUCUUUGGUUGCUGGAAUUCUCGGGUGCCAA`: “RBNS enrichment (R)” 0.63.

Further values, each from its own experiment
With `PhoQ, residues 284 288 289 292 302 303 SIHMAM` the fold induction was 1.32 (PhoP, residues 12 14 15 18 19 IFFTR (Escherichia coli, UniProt P23836); Sort-seq, item: YFP reporter; E. coli; PhoQ-PhoP variant library, with: 10 µM Mg2+; reference: high Mg2+ state, higher = stronger signaling).

Excerpt of the above (series 3):
`GGGAGUUCUACAGUCCGACGAUCCCUUUUUAAAGUUUAAUUUUAUAGCUGGCUCCACAUCAAAGUGAGGGCCUCAUAUGUUAGAUCACCUUGGGUGGCAAACACCCCAGUUCCCACGCAGUUGAGUGUCAUCAUGGAAUUCUCGGGUGCCAA`: “RBNS enrichment (R)” 0.698.
